Assay results collected from several papers.
Each line is one published result; not all experiments were run side by side. Numbers after ± are the reported error.
Genome polyprotein NS3 helicase domain: Genome polyprotein, NS3 helicase domain (Hepatitis C virus genotype 1b, UniProt Q9WMX2)
Sequence of UniProt O15264 (whole entry, looked up): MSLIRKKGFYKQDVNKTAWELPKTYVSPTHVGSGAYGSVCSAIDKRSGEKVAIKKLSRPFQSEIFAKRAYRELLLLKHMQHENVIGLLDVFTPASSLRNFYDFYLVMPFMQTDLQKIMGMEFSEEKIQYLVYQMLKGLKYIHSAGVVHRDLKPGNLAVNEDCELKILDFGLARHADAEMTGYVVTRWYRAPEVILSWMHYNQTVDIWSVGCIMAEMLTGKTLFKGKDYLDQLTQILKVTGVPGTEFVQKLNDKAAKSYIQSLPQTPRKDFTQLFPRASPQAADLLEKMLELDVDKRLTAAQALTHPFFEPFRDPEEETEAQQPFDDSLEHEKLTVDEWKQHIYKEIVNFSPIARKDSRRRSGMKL
Sequence of UniProt Q9H228 (whole entry, looked up): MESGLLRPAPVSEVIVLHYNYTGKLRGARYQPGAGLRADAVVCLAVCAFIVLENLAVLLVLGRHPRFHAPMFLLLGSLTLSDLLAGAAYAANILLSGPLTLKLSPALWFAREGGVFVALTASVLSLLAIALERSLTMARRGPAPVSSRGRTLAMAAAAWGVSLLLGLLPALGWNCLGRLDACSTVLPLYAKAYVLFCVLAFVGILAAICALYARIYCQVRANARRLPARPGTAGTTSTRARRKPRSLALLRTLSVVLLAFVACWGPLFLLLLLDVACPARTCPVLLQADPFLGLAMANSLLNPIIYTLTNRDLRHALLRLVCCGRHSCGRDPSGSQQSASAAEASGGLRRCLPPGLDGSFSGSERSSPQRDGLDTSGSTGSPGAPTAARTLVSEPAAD
Sequence of UniProt P50406 (whole entry, looked up): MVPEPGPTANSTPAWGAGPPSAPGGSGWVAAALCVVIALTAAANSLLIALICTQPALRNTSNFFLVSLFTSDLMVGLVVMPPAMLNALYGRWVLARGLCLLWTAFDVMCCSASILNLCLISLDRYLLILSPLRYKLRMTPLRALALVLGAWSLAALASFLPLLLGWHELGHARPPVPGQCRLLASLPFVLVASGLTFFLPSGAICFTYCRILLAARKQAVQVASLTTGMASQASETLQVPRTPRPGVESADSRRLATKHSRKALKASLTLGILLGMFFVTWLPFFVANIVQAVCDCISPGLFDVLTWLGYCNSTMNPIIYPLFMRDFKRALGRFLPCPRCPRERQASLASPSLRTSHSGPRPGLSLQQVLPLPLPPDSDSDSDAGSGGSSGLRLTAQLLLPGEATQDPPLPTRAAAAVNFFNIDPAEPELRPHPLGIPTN
Sequence of UniProt Q13523 (whole entry, looked up): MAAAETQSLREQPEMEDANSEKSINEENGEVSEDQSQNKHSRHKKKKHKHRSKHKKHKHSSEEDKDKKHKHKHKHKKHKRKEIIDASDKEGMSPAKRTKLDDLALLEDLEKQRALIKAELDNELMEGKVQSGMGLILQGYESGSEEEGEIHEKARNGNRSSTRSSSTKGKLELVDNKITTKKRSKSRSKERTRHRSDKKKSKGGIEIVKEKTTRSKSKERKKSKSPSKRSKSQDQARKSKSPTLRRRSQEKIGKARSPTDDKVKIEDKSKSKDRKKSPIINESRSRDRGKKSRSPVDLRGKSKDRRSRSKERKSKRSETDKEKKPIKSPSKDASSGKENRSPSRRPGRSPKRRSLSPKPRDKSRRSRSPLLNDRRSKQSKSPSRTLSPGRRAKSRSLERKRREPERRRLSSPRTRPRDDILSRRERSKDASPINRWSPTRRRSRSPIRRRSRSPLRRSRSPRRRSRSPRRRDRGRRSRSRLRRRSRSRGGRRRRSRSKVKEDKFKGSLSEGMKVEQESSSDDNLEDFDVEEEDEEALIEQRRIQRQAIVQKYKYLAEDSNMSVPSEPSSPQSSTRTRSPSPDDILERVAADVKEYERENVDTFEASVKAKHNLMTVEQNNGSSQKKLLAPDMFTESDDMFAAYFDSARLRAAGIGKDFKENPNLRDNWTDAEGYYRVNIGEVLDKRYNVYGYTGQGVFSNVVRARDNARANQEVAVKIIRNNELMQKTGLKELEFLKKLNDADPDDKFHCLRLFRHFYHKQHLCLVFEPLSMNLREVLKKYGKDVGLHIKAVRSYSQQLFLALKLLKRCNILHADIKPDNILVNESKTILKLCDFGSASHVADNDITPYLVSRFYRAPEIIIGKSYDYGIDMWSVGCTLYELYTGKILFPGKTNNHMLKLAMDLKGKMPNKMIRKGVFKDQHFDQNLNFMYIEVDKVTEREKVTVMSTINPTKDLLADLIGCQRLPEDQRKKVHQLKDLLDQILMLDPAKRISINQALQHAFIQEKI
Sequence of UniProt Q9Y5N1 (whole entry, looked up): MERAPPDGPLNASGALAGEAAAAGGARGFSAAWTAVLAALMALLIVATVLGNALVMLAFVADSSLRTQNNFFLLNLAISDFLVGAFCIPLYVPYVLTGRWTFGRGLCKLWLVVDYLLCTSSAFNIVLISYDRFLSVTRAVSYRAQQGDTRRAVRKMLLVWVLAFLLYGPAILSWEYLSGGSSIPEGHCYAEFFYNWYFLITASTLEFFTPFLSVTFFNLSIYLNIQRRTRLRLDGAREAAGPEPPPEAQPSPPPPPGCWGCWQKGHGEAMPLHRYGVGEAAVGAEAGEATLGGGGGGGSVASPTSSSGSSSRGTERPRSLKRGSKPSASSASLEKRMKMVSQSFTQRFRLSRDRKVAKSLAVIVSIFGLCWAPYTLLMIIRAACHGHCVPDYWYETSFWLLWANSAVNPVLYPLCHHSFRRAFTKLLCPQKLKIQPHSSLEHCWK
Sequence of UniProt P46095 (whole entry, looked up): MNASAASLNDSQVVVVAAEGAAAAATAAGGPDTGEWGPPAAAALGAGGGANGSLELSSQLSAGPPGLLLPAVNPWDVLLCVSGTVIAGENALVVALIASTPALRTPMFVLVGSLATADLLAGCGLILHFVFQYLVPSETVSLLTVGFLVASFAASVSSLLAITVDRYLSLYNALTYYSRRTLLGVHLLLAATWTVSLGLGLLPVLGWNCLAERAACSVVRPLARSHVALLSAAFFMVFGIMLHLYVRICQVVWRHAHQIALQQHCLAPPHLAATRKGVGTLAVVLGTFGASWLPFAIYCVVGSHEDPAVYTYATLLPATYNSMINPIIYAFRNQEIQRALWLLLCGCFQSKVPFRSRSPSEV
Sequence of UniProt Q96S44 (whole entry, looked up): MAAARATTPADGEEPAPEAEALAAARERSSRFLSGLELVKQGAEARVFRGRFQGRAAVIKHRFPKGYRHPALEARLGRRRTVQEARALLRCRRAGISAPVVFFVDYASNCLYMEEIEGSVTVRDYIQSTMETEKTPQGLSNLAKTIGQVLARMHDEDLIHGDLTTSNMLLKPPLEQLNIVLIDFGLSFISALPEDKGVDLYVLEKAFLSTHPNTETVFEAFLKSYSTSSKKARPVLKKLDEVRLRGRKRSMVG
Sequence of UniProt O00141 (whole entry, looked up): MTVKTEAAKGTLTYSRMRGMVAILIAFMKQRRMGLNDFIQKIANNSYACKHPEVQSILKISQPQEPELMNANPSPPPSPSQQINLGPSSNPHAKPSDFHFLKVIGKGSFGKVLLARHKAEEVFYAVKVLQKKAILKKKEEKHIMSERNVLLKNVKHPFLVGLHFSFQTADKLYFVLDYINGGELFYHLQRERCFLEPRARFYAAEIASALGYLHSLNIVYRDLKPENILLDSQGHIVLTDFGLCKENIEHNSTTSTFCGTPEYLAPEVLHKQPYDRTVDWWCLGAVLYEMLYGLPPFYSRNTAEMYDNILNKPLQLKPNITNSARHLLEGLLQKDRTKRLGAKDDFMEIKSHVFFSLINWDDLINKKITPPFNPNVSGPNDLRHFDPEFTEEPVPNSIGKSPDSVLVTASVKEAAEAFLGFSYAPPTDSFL
Sequence of UniProt P07948 (whole entry, looked up): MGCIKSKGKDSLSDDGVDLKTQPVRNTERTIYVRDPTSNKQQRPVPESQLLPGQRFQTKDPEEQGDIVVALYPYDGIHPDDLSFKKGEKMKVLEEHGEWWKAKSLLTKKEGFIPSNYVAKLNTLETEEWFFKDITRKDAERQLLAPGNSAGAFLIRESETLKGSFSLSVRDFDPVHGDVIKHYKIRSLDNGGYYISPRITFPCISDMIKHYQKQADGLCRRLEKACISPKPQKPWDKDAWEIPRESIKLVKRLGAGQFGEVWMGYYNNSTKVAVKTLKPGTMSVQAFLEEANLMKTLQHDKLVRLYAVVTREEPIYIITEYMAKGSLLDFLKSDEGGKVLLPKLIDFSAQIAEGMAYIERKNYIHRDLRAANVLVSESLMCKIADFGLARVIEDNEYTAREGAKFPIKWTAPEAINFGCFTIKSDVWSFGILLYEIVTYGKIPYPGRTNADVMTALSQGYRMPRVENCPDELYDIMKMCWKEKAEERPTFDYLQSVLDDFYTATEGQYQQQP
Sequence of UniProt P35348 (whole entry, looked up): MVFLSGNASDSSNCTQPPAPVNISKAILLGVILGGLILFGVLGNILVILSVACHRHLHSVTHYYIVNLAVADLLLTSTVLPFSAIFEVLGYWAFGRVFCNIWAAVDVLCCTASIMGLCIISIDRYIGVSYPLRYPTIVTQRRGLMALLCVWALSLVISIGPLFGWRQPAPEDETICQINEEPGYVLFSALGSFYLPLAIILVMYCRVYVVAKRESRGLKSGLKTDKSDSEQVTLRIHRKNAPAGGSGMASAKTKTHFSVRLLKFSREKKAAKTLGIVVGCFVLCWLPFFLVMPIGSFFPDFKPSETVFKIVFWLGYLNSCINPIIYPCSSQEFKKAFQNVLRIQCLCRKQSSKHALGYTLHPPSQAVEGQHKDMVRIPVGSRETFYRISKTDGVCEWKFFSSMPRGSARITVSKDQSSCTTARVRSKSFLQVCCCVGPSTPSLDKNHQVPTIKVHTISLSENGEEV

The inhibition of `COC(=O)c1ccc(C(=O)OC)c(NC(=O)CN2CCN(C(=O)COc3c(C)cccc3C)CC2)c1` is reported as greater than 30% (uncharacterized protein (Erigeron canadensis, UniProt A0A8M0FGR5); enzyme activity; 100 mg/L).
With `Br.CCCN1CCc2cc(O)cc3c2[C@H]1Cc1ccc(O)c(O)c1-3` the inhibition was 1% (Genome polyprotein NS3 helicase domain; DNA binding, inhibitor; hepatitis C virus; 100 µM, with: Cy5-dT15 DNA).
The inhibition of `O=C(Nc1cccnn1)N1CCC(=Cc2cccc(Oc3ccc(C(F)(F)F)cn3)c2)CC1` is reported as 10% (GABA transporter, rat; binding; 10 µM, with: [3H]GABA).
`Cc1cc2c(c(O)c1O)C(=O)c1c(O)cc(O)cc1C2=O` gave a cell viability of 97.8 ± 15.5% (HK-2 co-cultured with HepaRG; MTT; 66.67 µM, 48 h; reference: untreated control).
For `CC[C@@]1(O)C(=O)OCc2c1cc1n(c2=O)Cc2cc3ccccc3nc2-1`, the inhibition was 0% (Genome polyprotein NS3 helicase domain; DNA binding, inhibitor; hepatitis C virus; 100 µM, with: Cy5-dT15 DNA).
For `CC[C@H](C)[C@H](NC(=O)[C@H](CO)NC(=O)[C@H](C)NC(=O)[C@H](Cc1ccc(OP(=O)(O)O)cc1)NC(=O)[C@H](CCC(=O)O)NC(=O)[C@@H](NC(=O)[C@H](Cc1c[nH]cn1)NC(=O)[C@H](CC(N)=O)NC(=O)[C@H](CC(N)=O)NC(=O)[C@@H]1CCCN1C(=O)[C@H](CCC(=O)O)NC(=O)[C@H](C)NC(=O)[C@H](C)NC(=O)[C@H](CCC(N)=O)NC(=O)[C@@H]1CCCN1C(=O)[C@H](C)NC(=O)[C@@H]1CCCN1C(=O)[C@H](CCCCN)NC(=O)[C@H](CCCCN)NC(=O)CNC(=O)[C@H](CCCCN)NC(=O)[C@@H]1CCCN1C(=O)[C@H](CC(C)C)NC(=O)[C@H](CC(N)=O)NC(=O)[C@H](CC(C)C)NC(=O)[C@H](CC(=O)O)NC(=O)[C@H](C)NC(=O)[C@H](Cc1ccc(OP(=O)(O)O)cc1)NC(=O)[C@@H](NC(=O)[C@@H](NC(=O)[C@@H](N)CC(=O)O)[C@@H](C)CC)[C@@H](C)O)[C@@H](C)O)C(=O)N[C@@H](CCC(N)=O)C(=O)N[C@H](C(=O)N[C@@H](CO)C(=O)O)[C@@H](C)O`, the EC50 was 0.63 ± 0.01 µM (PTPN11 (Homo sapiens, UniProt Q06124, R111D); enzyme activity, activator; pH 7.0, 0.2% DMSO, with: DiFMUP 100 µM, phosphopeptide).
`CCCC[C@@H](NC(=O)[C@@H](N)Cc1c(C)cc(O)cc1C)C(=O)NCC(=O)N[C@@H](Cc1ccc(F)cc1)C(=O)N(C)CCC[C@@]1(c2ccc(F)cc2)OCc2cc(C#N)ccc21` has an inhibition of less than 50% (SLC6A4 (Homo sapiens, UniProt P31645); 10 µM).
`O=C(N[C@@H](Cc1ccccc1)C(=O)CCl)OCc1ccccc1` has an inhibition of 0% (Genome polyprotein NS3 helicase domain; DNA binding, inhibitor; hepatitis C virus; 100 µM, with: Cy5-dT15 DNA).
The inhibition of `O=C(CCCCCCc1ccccc1)c1ncc(-c2ccccn2)o1` is reported as roughly 80% (recombinant FAAH (rat); enzyme activity; 100 nM, 3 h, 22 °C, before dialysis).
For `CC[C@H](C)[C@@H]1NC(=O)[C@@H]2CCCN2C(=O)[C@H](CC(C)C)NC(=O)[C@H](CC(C)C)NC(=O)CNC(=O)[C@@H](NC(=O)[C@@H](NC(=O)[C@H](CC(=O)O)NC(=O)CNC(=O)[C@@H](NC(=O)[C@H](C)NC(=O)CNC(=O)[C@H](CCCCN)NC(=O)[C@H](CC(C)C)NC(=O)[C@H](CC(C)C)NC(=O)[C@H](CCCCN)NC(=O)CNC(=O)[C@@H](NC(=O)[C@@H](N)CC(C)C)C(C)C)C(C)C)C(C)C)CSSC[C@@H](C(=O)O)NC1=O`, “log2 fold change” read -2.52 (RNA-seq, refers to: Ncf4; mouse, traumatic brain injury model, frontal cortex and hippocampus; dose not given; reference: TBI alone).
`Br.CCCN(CCC)C1CCc2cccc(O)c2C1` (racemic) has an inhibition of 2% (Genome polyprotein NS3 helicase domain; DNA binding, inhibitor; hepatitis C virus; 100 µM, with: Cy5-dT15 DNA).
`CN(C(=O)n1cnc(-c2ccc[n+]([O-])c2)c1)C1CCCCC1` gave an inhibition of 4% (BRS3 (Homo sapiens, UniProt P32247); radioligand binding; 10 µM).
The TRAE incidence of `CO[C@H]1C[C@@H]2CC[C@@H](C)[C@@](O)(O2)C(=O)C(=O)N2CCCC[C@H]2C(=O)O[C@H]([C@H](C)C[C@@H]2CC[C@@H](OC(=O)NCCOCCOCCOCCOCCOCCOCCOCCOCCC(=O)N3CCc4cc(Cn5nc(-c6ccc7oc(N)nc7c6)c6c(N)ncnc65)ccc4C3)[C@H](OC)C2)C[C@@H](O)[C@H](C)/C=C(\C)[C@@H](O)[C@@H](OC)C(=O)[C@H](C)C[C@H](C)/C=C/C=C/C=C/1C` is reported as 50% (phase 1 dose escalation, refers to: mucositis; advanced solid tumour patients; intravenous, 12 mg weekly, any grade).
For `CN1CC[C@@]2(C)c3cc(O)ccc3N(C)[C@@H]12.O=C(O)/C=C/C(=O)O`, the inhibition was 1% (Genome polyprotein NS3 helicase domain; DNA binding, inhibitor; hepatitis C virus; 100 µM, with: Cy5-dT15 DNA).
With `Cn1cccc1-c1cccnc1` the inhibition was 5.58% (HRH3 (Homo sapiens, UniProt Q9Y5N1); binding; 50 µM).
For `O=C(Nc1cnccc1Cl)N1CCN(Cc2ccc3c(c2)OC(F)(F)O3)CC1`, the inhibition was 46% (ADRA2B (Homo sapiens, UniProt P18089); binding; 50 µM, with: [3H]rauwolscine).
The inhibition of `O=c1ccc2ccccc2o1` is reported as 2.65% (ADRA1A (Homo sapiens, UniProt P35348); antagonist radioligand binding; 10 µM, SafetyScreen44).
For `CNc1ccc2oc(C[C@H]3O[C@@]4(CC[C@H]3C)O[C@H]([C@H](C)C(=O)c3ccc[nH]3)[C@H](C)C[C@H]4C)nc2c1C(=O)O`, the inhibition was 1% (Genome polyprotein NS3 helicase domain; DNA binding, inhibitor; hepatitis C virus; 100 µM, with: Cy5-dT15 DNA).
With `CN1CCN(c2cc(-c3ccncc3)c(-c3ccc4ccccc4c3)nn2)CC1` the inhibition was -4.6% (S1PR5 (Homo sapiens, UniProt Q9H228); antagonist, FLIPR; 10 µM).
For `Oc1ccc2c3c1O[C@H]1[C@@H](O)CC[C@@]4(O)[C@@H](C2)N(CC2CCC2)CC[C@]314`, “log2 fold change” read 0.122 (G-protein coupled receptor 6 (Homo sapiens, UniProt P46095); β-arrestin recruitment, TANGO luminescence, refers to: GPR6; concentration not given; reference: basal luminescence).
With `COc1cc2c(Oc3ccc4[nH]c(C)cc4c3F)ccnc2cc1OCC1(N)CC1` the Hyperthyroidism incidence was 0% (paediatric recurrent refractory sarcoma; 10 mg).
`C[C@]1(CO)Cc2ncn(-c3ccc(C#N)c(Cl)c3)c2C(=O)O1` has a Cmax of 3.52 µM (healthy Japanese adults, plasma; 80 mg single dose).
The inhibition of `CC1(C)Cc2cccc(OCC(=O)N3CCC(C(=O)Nc4ccc5c(c4)OCO5)CC3)c2O1` is reported as 12.6 ± 15.1% (Trypanothione synthetase (Leishmania infantum, UniProt A4I2Z3); enzyme activity; 25 µM).
`CN1CCN(c2nc(N)c3ccccc3n2)CC1` gave an inhibition of 6.3% (HTR6 (Homo sapiens, UniProt P50406); radioligand binding, radioligand competition binding; 0.1 µM, second replicate; reference: control specific binding).
`C[C@H]1CN(c2n[nH]c3nc(N[C@H]4CC[C@H](NS(=O)(=O)CCC(F)(F)F)CC4)ncc23)CCO1` gave a relative abundance of 1.12 (TP53RK (Homo sapiens, UniProt Q96S44); inhibitor, Kinobeads competition profiling; 0.8 µM; reference: vehicle).
With `Cn1cc(-c2cc(F)cc(N3CCn4c(cc5c4CCCC5)C3=O)c2CO)cc(Nc2ccc(N3CCN(C4COC4)CC3)cn2)c1=O` the inhibition was 14% (Tyrosine-protein kinase Lyn, isoform B (LYN, Homo sapiens, UniProt P07948); kinase activity, inhibitor, SelectScreen kinase profiling; 0.1 µM, with: ATP at apparent Km).
For `CC(=O)NC[C@H]1[C@H](O)[C@H](O)[C@@H]2[C@H](O)C[C@@H](CO)N21`, the inhibition was 62.7% (Spodoptera litura β-N-acetylglucosaminidase; crude enzyme; 0.0251 µM, run 1, with: p-nitrophenyl GlcNAc).
For `C#Cc1n[nH]c2c(-c3cn([C@@H](C)c4ccccc4)c(=O)[nH]c3=O)cc(F)cc12`, the inhibition was -2.8% (Phosphatidylinositol 4,5-bisphosphate 3-kinase catalytic subunit beta isoform, with p85 alpha (PIK3CB, Homo sapiens, UniProt P42338); kinase activity, inhibitor; 100 nM).
For `CC[C@H](C)[C@H](NC(=O)[C@H](Cc1ccccc1)NC(=O)[C@H](CCC(=O)O)NC(=O)[C@H](CCCNC(=N)N)NC(=O)[C@H](C)NC(=O)[C@H](C)NC(=O)[C@H](CCC(N)=O)NC(=O)[C@H](CCC(=O)O)NC(=O)[C@H](CCC(=O)O)NC(=O)[C@H](CC(C)C)NC(=O)[C@H](Cc1ccc(O)cc1)NC(=O)[C@H](CO)NC(=O)[C@H](CO)NC(=O)[C@@H](NC(=O)[C@H](CC(=O)O)NC(=O)[C@H](CO)NC(=O)[C@@H](NC(=O)[C@H](Cc1ccccc1)NC(=O)[C@@H](NC(=O)CNC(=O)[C@H](CCC(=O)O)NC(=O)[C@H](C)NC(=O)CCc1c[nH]cn1)[C@@H](C)O)[C@@H](C)O)C(C)C)C(=O)N[C@@H](C)C(=O)N[C@@H](Cc1c[nH]c2ccccc12)C(=O)N[C@@H](CC(C)C)C(=O)N[C@H](C(=O)N[C@@H](CCCNC(=N)N)C(=O)NCC(=O)N[C@@H](CCCNC(=N)N)C(=O)N[C@@H](CCCCNC(=O)COCCOCCNC(=O)COCCOCCNC(=O)CC[C@H](NC(=O)CCCCCCCCCCCCCCCCC(=O)O)C(=O)O)C(=O)NCC(=O)NCC(=O)N[C@@H](CO)C(=O)N[C@@H](CCCCNc1c(NCCCCCN(O)C(=O)CCC(=O)NCCCCCN(O)C(=O)CCC(=O)NCCCCCN(O)C(C)=O)c(=O)c1=O)C(=O)O)C(C)C` [zirconium-89 labelled], the tissue uptake was 0.11 %ID/g (rat, heart; iv, 3 nmol/kg, 72 h, ex vivo).
For `C[C@@H](O)[C@@H](CO)NC(=O)[C@@H](CCCNC(=N)N)NC(=O)[C@@H]1CCCN1C(=O)[C@@H]1CSSC[C@H](NC(=O)[C@H](Cc2ccccc2)NC(=O)CN2CCN(CC(=O)O)CCN(CC(=O)O)CCN(CC(=O)O)CC2)C(=O)N[C@@H](Cc2ccc(O)cc2)C(=O)N[C@@H](Cc2ccccc2)C(=O)N[C@@H](CCC(N)=O)C(=O)N[C@@H](CC(N)=O)C(=O)N1` [gallium-68 labelled], the tissue uptake was 0.03 %ID/g (healthy Wistar rat, heart; intravenous, 8 MBq, 120 min, individual animals).
`CN1CC[C@]2(CCN3CCc4c(oc5ccccc45)[C@@H]3C2)N(C)C1=O.Cl` has an inhibition of 3% (Genome polyprotein NS3 helicase domain; DNA binding, inhibitor; hepatitis C virus; 100 µM, with: Cy5-dT15 DNA).
`C[C@@H](O)[C@H](NC(=O)[C@@H]1CSSC[C@H](NC(=O)[C@@H](Cc2ccccc2)NC(=O)CN2CCN(CC(=O)[O-])CCN(CC(=O)[O-])CCN(CC(=O)[O-])CC2)C(=O)N[C@@H](Cc2ccc(O)cc2)C(=O)N[C@H](Cc2c[nH]c3ccccc23)C(=O)N[C@@H](CCCCN)C(=O)N[C@@H]([C@@H](C)O)C(=O)N1)C(=O)O.[177Lu+3]` has an uptake of 1.01% (MEC1 treated with 50 µM zebularine; gamma counter; serum-free RPMI; 30 min, 37 °C).
For `FC(F)(F)c1cccc(Nc2nc(NCCOc3ccccc3)nc3[nH]cnc23)c1`, the inhibition was 7% (MAPK13 (Homo sapiens, UniProt O15264); Z'-LYTE or Adapta; 5 µM).
With `COc1ccc(N2C(=O)N(c3c(C)cccc3Cl)Cc3cnc(Nc4ccc(C5CCN(C)CC5)cc4OC)nc32)nc1` the inhibition was 3.75% (SGK1 (Homo sapiens, UniProt O00141); kinase activity; 0.5 µM).
`CC(C)N1CCC[C@H]1CNC(=O)c1cn(C2CCCC2)c(=O)c2c1c1ccccc1n2C` gave an inhibition of 18% (NMDA receptor phencyclidine site, rat; radioligand binding; 10 µM).
`COc1cc(Nc2ncc(F)c(Nc3ccc4c(n3)NC(=O)C(C)(C)O4)n2)cc(OC)c1OC` gave an inhibition of 26% (PRPF4B (Homo sapiens, UniProt Q13523); kinase binding, KINOMEscan; 10 µM).
`CCc1ccc(CC/C=C/c2ccc3c(c2)C(=O)CC3)cc1` gave a Reticulocyte percentage of 2.55% (Sprague-Dawley rat, female; oral, 450 mg/kg/day, 14 days).
